Experimental data from different studies.
Each numbered part is a random draw from the data of one study; scales do not carry over between parts. Substitutions count along the parent as printed.

Sample 1 — method: DHFR PCA, deep sequencing; matrix: yeast; added: (+)-ABA 0.032 µM; reference: wild-type fitted maximum; direction: higher = stronger binding
Target: ABI1, truncated, D143A, DHFR fusion (Arabidopsis thaliana)
Setting: methotrexate growth selection, single substitutions
Starting sequence: PYL1, truncated, DHFR fusion (Arabidopsis thaliana); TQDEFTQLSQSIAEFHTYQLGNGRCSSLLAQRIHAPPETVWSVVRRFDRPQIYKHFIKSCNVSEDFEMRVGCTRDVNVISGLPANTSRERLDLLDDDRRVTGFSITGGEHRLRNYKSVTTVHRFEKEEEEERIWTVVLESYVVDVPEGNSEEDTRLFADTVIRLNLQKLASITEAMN; partner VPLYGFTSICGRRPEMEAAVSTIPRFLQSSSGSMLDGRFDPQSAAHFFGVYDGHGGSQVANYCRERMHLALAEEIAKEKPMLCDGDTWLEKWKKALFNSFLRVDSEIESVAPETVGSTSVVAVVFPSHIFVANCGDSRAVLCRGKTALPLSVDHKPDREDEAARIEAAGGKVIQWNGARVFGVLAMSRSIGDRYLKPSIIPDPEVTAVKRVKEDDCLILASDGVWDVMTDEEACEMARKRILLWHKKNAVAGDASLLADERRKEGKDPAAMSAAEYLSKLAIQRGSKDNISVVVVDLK
Change | relative binding score [%]
W134K | 4.69
I133D | 52
R99G | 0.269
Q2G | 5.02
C25Y | -3.39
N177P | 33.6
H122F | -1.48
H122K | 3.1
L8D | 1.36
L93K | 1.43
H122R | 2.05
E130N | 18.3
L91S | -1.77
S150D | 13.4
N165R | 4.58
E139R | 5.15
F47I | -3.7
S11A | 56.4
L91C | 6.93
L8T | 5.21
K116M | 1.14
C60H | -7.05

Sample 2 — method: protein-binding microarray; form: double-stranded DNA, one strand shown; matrix: in vitro; tested at: 2200 nM top; setting: 60-bp whole probe; added: salmon DNA 0.4 mg/ml; reference: random background probes; direction: higher = stronger binding; constant ends, left off below: GCCTAGCAC … GTCTTGATTCGCTTGACGCTGCTG
Target: Interferon regulatory factor 7, full length, phosphomimetic (IRF7, Homo sapiens, UniProt Q92985, residues 1-503, S471D/S472D/S475D/S476D/S477D/S483D/S484D/S487D)
Residues (chain): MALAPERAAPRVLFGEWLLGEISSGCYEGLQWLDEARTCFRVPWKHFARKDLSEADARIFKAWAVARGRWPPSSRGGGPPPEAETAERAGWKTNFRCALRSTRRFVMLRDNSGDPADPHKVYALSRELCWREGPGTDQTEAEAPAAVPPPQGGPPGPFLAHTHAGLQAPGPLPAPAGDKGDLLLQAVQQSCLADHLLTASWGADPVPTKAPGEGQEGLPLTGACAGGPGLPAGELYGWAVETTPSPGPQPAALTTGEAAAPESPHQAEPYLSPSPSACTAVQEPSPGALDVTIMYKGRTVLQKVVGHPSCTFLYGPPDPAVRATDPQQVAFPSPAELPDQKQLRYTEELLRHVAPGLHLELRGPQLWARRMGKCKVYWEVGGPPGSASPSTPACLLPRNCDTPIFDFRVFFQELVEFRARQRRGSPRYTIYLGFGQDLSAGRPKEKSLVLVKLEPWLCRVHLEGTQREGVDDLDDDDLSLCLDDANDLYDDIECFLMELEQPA
Strand | fitted relative affinity [z-score]
TTAGATTTGAGTCTCGATTAGTGCTAG | 0.095
GACGGACTGGACTATCGTGACGTGCTA | -0.267
GACGACTTCGGGTATCGAGACGTGCTA | 0.0952
TTAGGACTGCGGTTTCGGTTAGTGCTA | 4.5
CTTTATGTCCTGTCTACATGGGTGCTA | 1.08
GCCGGTATCCTTTTCCTGACGTGCTAG | 1.49
CTAGATTTCAGTTTCGATTAGTGCTAG | 8.19
TTACATTTATATCTTTGCTTGTGCTAG | 1.06
TTAGGTATCCTTCTCCATTAGTGCTAG | 1.04
TTAGGTTTCAGGACTGGGTTAGTGCTA | 0.618
GACGATTCCAGTTTCGACACGTGCTAG | 3.62
TTAGGTATCCTTAACCTTTAGTGCTAG | 0.377
TCAGGACTGGACACTGGGTTAGTGCTA | -0.897
TTAGAACTGCGGTTTCGATTAGTGCTA | 3.46
CAGGTTCTCTTTTATTTTTTGTGCTAG | 1.84
GACGGTCTCGCTCTCGGGACGTGCTAG | 0.0288
TTAGGTTTACTTATCCTTTAGTGCTAG | 1.07
TTAGGTATCGGTCTCTGTTAGTGCTAG | 1.08
GACGACCTCAGACTGGAGACGTGCTAG | -0.329
GACGATATCAGTTTCGAGAAGTGCTAG | 1.79
GGGCCACAAAGCAATAAGAAGTGCTAG | -1.48
TCATGTACGTCGTTTCCCACTGTGCTA | 1.93
CTAGGACTGGGGTATCGGTTAGTGCTA | -0.788
GACGGTCCCGGTCTCGGGACGTGCTAG | -0.76
TTAGGAATCGACTATCGGTTAGTGCTA | -0.159

Sample 3 — method: RNA Bind-n-Seq; form: RNA; matrix: in vitro; tested at: 365 nM; reference: no-protein control; direction: higher = stronger binding
Target: RNA binding protein fox-1 homolog 2, RRM domain, GST-SBP tag (RBFOX2, Homo sapiens, UniProt O43251-10, residues 100-194)
Setting: natural RNA segment, single round, ends assumed
Construct (chain): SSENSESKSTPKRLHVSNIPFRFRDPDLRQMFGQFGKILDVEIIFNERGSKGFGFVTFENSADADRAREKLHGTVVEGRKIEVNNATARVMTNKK
Strand | RBNS enrichment (R)
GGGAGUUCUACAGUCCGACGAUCAGGAGCUCACAGUCUAGCCUACUCCCUGGCUGGAAGCCUCAGGAAGACGUGCUAAUUUAUUGUGGAAUUGGUAGUUUGCUUUUCAUGCCCCUGUCUUCCUUCUCAUGACCUGGAAUUCUCGGGUGCCAA | 0.496
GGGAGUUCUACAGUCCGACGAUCAGAUAAAUGGUUAAUUGUUGGGGCUGGGAAAAUGGCCCAGUGGUUAAAAGUAUUCAUUCCUCUCGAGGACCCAGGAUCAAUUUCCAGCAUCCACAUGGCAGCUCACAACCUGGAAUUCUCGGGUGCCAA | 0.74
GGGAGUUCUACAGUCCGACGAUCAGGACUCCUGCCAGACCACACAGCCCACACCUGGCCCUGUUCACGGCUGUUCCACCCACCCCUCUUUAUUCUGGAGCAUAUCAGGGAAAGAAAAGUUGAUGAUAGAUUGCUGGAAUUCUCGGGUGCCAA | 0.515
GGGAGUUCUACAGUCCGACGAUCACAAAGGGAAGGCUGCUGUGUAGCUCUGUCCACUCUGAAUACCAAGUGUGUUGGGAAUUGCAUGCCAUCUCCACCCUGAGCCUGACCUUUCUGAGUGACAUGGGUGUGCCUGGAAUUCUCGGGUGCCAA | 15.1
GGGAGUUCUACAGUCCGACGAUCUUUAAGGAGUUCAGAUUUAAUGACCAAAGUCAUACAGAUCAUGGAAUCUGUCGUCGUCUUAUACAGUGUCAGCCUCGAGUACAUUUAUUAACCUUUUGGGGCUGUCAGUUUGGAAUUCUCGGGUGCCAA | 0.307
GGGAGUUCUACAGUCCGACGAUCCAGGUGAGAAGCUCCAGGAACUACUGGCUACCUUGACAAGCUGGGUAAAUAGUUAUCAUUCUGGGUAACUGGUUGAAACUCUGACUUUUGGACAAGUAAUUCCUGGGGUUUGGAAUUCUCGGGUGCCAA | 0.565
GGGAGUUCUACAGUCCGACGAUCGAAACCCUAACGAUGAAGAUGGUCCUGUCCCGGGAGCGGCUGGCUCCACCGAAGUGCUGGGGAGUUGCAGGACUUCAUUCAAAUAGGAAUAUCAGUCCAAGCAAGCUGAUUGGAAUUCUCGGGUGCCAA | 0.474
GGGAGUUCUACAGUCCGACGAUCGUAGUCUGACACUGGAGUCCCCAACCCACCCCAUUCCUGCCCUCAUCCUCAGCCCAUCAUUUGUGAACACUGGACUCUGAAAUAAAUGCUGCCUGUCACGUGGACACUUUUGGAAUUCUCGGGUGCCAA | 0.445
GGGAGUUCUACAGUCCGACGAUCACAAAAGUCCAGCCAUUAUCAUCCUCCUGAGUUAUUUGAAAUGAUUUUUUUUGUACAUUUUGGCUGCAGUAUUGGUGGUAGAAUAUACUAUAAUAUGGAUCAUCUCUACUUGGAAUUCUCGGGUGCCAA | 0.364
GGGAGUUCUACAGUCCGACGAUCCCAAGAUCUAAUUUUAAAAAUGUACGAGGACUUUGUGCUGAAAAUACAGAGUAUUUUUUUAAAGUAAGGCUGUCUUGGCUUAAAAGCAGAUUACAGAAAUGUAAGCCAGCUGGAAUUCUCGGGUGCCAA | 0.56
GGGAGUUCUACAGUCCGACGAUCUUAAUGGAACAUUGUACAGUGAAGAGACGACCUGGCAAGUUCUUUGUAGACGUGUUUCAGUGCCUCGUCUGAACAGGAGCCGUUUCACUUCUUUGAAACUCUACAUUUUCUGGAAUUCUCGGGUGCCAA | 0.822
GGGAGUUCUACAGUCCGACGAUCAAUAAUUCACAGAUUAUAGCUUAUUUUUAAUUAAUUUAUUUAUUUUGAAACAGUUUCACUGUGUCUGCCUGACUGGUCUGAAACUCACUAAGUAAACCAGGCUAGUUUCAUGGAAUUCUCGGGUGCCAA | 0.448

Sample 4 — target: CCND3, cyclin fold, Cln2 fusion (human); method: yeast growth competition, sequencing; matrix: yeast; setting: weak parent motif; reference: not given; direction: higher = stronger binding
Starting sequence: PKN2 docking peptide (human); VSAVQKLDFSDTM; partner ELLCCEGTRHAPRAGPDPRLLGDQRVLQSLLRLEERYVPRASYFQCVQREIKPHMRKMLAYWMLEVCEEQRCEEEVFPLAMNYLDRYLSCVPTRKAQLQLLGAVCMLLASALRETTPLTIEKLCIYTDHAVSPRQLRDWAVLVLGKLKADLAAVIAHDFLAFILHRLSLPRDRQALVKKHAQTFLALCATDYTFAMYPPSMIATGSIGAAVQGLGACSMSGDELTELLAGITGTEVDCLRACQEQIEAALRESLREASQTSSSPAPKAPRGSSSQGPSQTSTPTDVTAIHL
Change | normalised enrichment score
VSAVQKLDFSKTM [D11K] | 0.0446
VSAYQKLDFSDTM [V4Y] | 0.0916
VMAVQKLDFSDTM [S2M] | 0.153
VSAVQKLDFSDTI [M13I] | 0.147
VSYVQKLDFSDTM [A3Y] | 0.112
VSAVQKLDFSDDM [T12D] | 0.115
VSAVQKLDFSDQM [T12Q] | 0.0807
VSAHQKLDFSDTM [V4H] | 0.102
VSAAQKLDFSDTM [V4A] | 0.117
VSAVQWLDFSDTM [K6W] | 0.145
VSAVQKSDFSDTM [L7S] | 0.0747
VSDVQKLDFSDTM [A3D] | 0.00507
VSAVQKLDFSDRM [T12R] | 0.11
VSAVQKLDFSGTM [D11G] | 0.116
VSAVQKLDHSDTM [F9H] | 0.0703
VSAWQKLDFSDTM [V4W] | 0.0845
VSAVQKLDFSDTN [M13N] | 0.122
VSAVRKLDFSDTM [Q5R] | 0.501
VSAVQKDDFSDTM [L7D] | 0.125

Sample 5 — method: aptamer microarray, sandwich; form: DNA with 2'F-ANA; matrix: in vitro; tested at: 200 nM; added: Cy3 exosite-II aptamer, 400 nM; direction: higher = stronger binding; strand: GGTTGGTGTGGTTGG
Target: Prothrombin, mature alpha-thrombin (F2, Homo sapiens, UniProt P00734)
Setting: whole 15-mer aptamer, many near background
Modification | mean fluorescence intensity [a.u.]
2'F-ANA at 2 4 6 7 8 9 10 11 12 | 149
2'F-ANA at 2 9 10 12 | 173
2'F-ANA at 2 5 9 10 13 14 15 | 49.2
2'F-ANA at 1 2 3 4 7 8 9 11 12 13 15 | 209
2'F-ANA at 6 8 9 10 12 13 14 15 | 101
2'F-ANA at 1 3 4 6 7 14 15 | 69.2
2'F-ANA at 3 5 6 8 13 | 94.3
2'F-ANA at 2 4 7 8 9 10 11 12 13 14 | 68.5
2'F-ANA at 4 5 6 8 9 10 | 93.1
2'F-ANA at 1 2 4 6 7 | 124
2'F-ANA at 1 2 3 4 6 7 8 9 10 13 14 15 | 58
2'F-ANA at 2 4 5 8 10 11 12 13 14 | 52.1
2'F-ANA at 2 4 6 7 9 11 12 14 | 114
2'F-ANA at 2 7 12 13 14 15 | 280
2'F-ANA at 2 4 5 8 10 12 14 15 | 48.4
2'F-ANA at 4 5 7 8 9 10 12 13 14 | 48.9

Single results of other studies
Molecule | target | assay | test system | conditions | how to read | endpoint | value
PhoQ, residues 284 288 289 292 302 303 TTSMTC | PhoP, residues 12 14 15 18 19 LWHVM (Escherichia coli, UniProt P23836) | Sort-seq, measured: YFP reporter | E. coli | PhoQ-PhoP variant library, added: 10 µM Mg2+ | reference: high Mg2+ state, higher = stronger signaling | fold induction | 3.75

Some of these lines once more (sample 2):
Strand | fitted relative affinity [z-score]
TTAGAACTGCGGTTTCGATTAGTGCTA | 3.46
TTAGATTTGAGTCTCGATTAGTGCTAG | 0.095
TCATGTACGTCGTTTCCCACTGTGCTA | 1.93
GACGGACTGGACTATCGTGACGTGCTA | -0.267
TTACATTTATATCTTTGCTTGTGCTAG | 1.06
CTAGATTTCAGTTTCGATTAGTGCTAG | 8.19
GGGCCACAAAGCAATAAGAAGTGCTAG | -1.48
GACGATATCAGTTTCGAGAAGTGCTAG | 1.79
TTAGGTATCCTTCTCCATTAGTGCTAG | 1.04
TTAGGTATCCTTAACCTTTAGTGCTAG | 0.377
GACGACCTCAGACTGGAGACGTGCTAG | -0.329
CTAGGACTGGGGTATCGGTTAGTGCTA | -0.788
TTAGGTTTACTTATCCTTTAGTGCTAG | 1.07
